Assay results of several laboratories.
Parts stem from different laboratories: compare values within a part only. Values joined by “and” are separate records of one study, mostly repeats; a detail may differ.
UniProt O75676, sequence (whole entry, looked up): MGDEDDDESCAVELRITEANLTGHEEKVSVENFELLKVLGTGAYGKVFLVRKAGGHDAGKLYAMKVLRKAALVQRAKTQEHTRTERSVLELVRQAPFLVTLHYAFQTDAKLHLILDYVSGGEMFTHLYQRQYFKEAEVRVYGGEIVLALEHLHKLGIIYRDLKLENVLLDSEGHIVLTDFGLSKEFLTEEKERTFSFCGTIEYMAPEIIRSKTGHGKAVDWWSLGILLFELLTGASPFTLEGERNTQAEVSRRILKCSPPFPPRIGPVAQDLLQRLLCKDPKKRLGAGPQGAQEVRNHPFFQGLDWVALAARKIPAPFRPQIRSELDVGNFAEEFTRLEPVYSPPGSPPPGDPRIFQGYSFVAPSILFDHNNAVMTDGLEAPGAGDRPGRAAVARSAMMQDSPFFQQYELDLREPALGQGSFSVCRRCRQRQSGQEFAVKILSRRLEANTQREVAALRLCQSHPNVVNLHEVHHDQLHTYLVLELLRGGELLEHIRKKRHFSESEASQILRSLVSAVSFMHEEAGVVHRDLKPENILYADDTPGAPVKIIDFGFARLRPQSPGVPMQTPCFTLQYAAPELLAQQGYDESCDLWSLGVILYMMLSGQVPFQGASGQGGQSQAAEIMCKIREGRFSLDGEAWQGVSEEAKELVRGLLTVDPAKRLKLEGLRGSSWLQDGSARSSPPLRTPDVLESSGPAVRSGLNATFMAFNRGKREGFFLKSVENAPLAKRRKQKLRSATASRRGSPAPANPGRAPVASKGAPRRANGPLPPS
UniProt P21802, sequence (whole entry, looked up): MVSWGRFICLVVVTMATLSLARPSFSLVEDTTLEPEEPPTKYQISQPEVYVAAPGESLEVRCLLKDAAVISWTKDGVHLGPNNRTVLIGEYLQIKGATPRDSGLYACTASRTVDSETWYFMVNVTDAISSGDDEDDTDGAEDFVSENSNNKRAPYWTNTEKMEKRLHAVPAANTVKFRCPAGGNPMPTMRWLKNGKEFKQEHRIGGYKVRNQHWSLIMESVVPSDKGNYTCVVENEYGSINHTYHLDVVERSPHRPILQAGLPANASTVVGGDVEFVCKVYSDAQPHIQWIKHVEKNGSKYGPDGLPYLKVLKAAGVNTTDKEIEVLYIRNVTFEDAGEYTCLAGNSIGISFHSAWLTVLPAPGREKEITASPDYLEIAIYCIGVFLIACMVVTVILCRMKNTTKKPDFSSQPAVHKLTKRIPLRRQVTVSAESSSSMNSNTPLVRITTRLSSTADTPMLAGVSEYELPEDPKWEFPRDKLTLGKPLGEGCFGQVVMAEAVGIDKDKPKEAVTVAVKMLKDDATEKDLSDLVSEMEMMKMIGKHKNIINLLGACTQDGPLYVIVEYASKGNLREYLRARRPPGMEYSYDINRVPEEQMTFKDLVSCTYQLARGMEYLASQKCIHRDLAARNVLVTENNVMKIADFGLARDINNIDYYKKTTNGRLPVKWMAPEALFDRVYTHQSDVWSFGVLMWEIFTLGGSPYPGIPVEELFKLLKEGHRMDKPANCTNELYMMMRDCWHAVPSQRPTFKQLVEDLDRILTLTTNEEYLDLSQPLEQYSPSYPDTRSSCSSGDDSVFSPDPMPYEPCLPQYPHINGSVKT
UniProt Q13131, sequence (whole entry, looked up): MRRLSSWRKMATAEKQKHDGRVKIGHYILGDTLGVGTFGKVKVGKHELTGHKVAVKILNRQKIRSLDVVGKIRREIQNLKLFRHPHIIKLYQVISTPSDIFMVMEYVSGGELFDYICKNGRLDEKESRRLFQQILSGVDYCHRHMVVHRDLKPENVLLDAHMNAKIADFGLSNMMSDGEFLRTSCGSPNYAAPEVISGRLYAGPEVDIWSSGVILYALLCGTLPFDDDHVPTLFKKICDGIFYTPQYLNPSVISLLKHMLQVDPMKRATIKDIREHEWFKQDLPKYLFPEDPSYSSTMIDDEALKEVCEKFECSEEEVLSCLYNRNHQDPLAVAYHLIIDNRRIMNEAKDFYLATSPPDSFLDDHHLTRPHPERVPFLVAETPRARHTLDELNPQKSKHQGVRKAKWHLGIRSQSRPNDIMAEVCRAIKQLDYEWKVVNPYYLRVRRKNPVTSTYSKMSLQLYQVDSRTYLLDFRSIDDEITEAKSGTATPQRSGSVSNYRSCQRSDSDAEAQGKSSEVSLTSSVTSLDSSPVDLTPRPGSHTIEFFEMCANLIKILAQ
UniProt O00506, sequence (whole entry, looked up): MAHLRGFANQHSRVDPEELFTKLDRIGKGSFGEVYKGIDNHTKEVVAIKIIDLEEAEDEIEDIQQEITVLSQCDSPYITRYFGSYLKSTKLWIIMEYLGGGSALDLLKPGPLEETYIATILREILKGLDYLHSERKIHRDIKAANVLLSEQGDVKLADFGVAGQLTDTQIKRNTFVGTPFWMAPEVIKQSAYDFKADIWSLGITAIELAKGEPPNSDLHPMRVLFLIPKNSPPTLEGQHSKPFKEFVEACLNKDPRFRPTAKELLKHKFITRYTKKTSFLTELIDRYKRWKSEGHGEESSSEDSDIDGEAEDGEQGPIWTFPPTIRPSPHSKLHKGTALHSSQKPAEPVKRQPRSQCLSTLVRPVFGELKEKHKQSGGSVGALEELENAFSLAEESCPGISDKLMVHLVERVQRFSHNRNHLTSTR
UniProt O43318, sequence (whole entry, looked up): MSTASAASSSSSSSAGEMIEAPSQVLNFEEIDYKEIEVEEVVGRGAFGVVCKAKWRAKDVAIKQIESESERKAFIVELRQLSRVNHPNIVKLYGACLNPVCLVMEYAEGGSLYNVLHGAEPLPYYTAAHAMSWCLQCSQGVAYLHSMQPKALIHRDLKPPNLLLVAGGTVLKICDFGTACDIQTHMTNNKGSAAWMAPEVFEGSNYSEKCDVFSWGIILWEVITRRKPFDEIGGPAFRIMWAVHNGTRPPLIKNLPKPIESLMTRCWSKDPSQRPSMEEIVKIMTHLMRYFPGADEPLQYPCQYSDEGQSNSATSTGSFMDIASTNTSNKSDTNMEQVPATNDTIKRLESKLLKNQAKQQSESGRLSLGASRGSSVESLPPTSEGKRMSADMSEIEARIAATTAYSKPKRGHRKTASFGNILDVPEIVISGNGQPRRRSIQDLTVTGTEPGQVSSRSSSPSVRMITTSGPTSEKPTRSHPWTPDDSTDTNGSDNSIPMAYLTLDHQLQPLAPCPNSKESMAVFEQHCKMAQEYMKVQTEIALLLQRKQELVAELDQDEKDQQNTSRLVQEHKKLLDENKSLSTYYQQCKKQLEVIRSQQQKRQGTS
UniProt P46734, sequence (whole entry, looked up): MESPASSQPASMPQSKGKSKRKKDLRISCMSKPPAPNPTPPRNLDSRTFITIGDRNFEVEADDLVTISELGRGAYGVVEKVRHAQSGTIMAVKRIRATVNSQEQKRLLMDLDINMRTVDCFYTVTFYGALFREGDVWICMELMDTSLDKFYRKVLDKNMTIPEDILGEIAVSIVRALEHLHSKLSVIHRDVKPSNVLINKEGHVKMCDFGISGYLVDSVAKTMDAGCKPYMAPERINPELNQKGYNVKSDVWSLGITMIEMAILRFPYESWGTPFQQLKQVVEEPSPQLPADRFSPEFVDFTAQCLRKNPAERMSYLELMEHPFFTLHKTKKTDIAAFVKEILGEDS

Block 1
SMILES: Cc1cc2c(C(N)=O)c(N)n(-c3c(C)ccc(O)c3C)c2nc1C
SRC: Proto-oncogene tyrosine-protein kinase Src (SRC, Homo sapiens, UniProt P12931)
BRAF: Serine/threonine-protein kinase B-raf (BRAF, Homo sapiens, UniProt P15056)
UniProt P15056, sequence (whole entry, looked up): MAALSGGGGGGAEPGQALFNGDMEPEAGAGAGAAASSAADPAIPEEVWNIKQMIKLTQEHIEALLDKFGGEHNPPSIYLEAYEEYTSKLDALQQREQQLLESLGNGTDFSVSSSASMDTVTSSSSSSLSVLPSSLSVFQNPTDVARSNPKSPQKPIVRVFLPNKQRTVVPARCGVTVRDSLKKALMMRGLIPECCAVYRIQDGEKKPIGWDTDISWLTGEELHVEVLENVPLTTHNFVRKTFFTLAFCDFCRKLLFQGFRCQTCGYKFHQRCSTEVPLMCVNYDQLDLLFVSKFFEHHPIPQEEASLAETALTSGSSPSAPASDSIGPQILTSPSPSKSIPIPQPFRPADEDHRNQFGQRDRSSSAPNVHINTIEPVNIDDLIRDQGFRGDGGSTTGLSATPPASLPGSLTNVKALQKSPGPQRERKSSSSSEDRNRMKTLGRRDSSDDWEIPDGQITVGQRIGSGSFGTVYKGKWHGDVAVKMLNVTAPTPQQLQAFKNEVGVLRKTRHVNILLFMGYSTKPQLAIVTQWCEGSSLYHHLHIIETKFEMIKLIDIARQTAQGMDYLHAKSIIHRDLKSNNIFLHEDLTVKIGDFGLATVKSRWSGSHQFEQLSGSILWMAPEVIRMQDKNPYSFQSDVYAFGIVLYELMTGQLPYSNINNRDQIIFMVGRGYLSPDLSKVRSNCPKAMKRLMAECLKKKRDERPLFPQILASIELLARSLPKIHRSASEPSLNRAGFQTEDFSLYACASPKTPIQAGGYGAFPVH
| tested on | assay | conditions | inhibition |
| --- | --- | --- | --- |
| SRC | kinase activity, inhibitor, HTRF | 0.01372 µM | 68.6% |
| HCC1569 | automated immunoblotting, measured: CDK1 phospho-Thr14 | concentration not given, 4 h after washout | 24.3% |
| BRAF | kinase activity, ADP-Glo | 3.333 µM | 101% |
| SRC | enzyme activity, inhibitor, TR-FRET | 4.572 nM | 44% |
| LN-229 | cell proliferation | 30000 nM | 97.8% |
| MDA-MB-436 | cell proliferation | 1.52 nM | -3.1% and -6.87% and -1.49% |
| RKO | cell proliferation | 4.572 nM | -5.75% and -0.02% |
| RKO | cell proliferation | 123.5 nM | -5.88% and -5.57% |
| BRAF | kinase activity, ADP-Glo | 0.3704 µM | 84.5% |
| SRC | kinase activity, inhibitor, HTRF | 0.0005081 µM | 7.78% |
| NCI-H1568 | cell proliferation | 13.72 nM | 4.17% and 10.5% and 6.15% |
| SRC | enzyme activity, inhibitor, TR-FRET | 1.111 µM | 99.1% |

Block 2
Target: Dual specificity protein kinase CLK1 (CLK1, Homo sapiens, UniProt P49759)
Observed: enzyme activity
Mode: inhibitor
Concentration: 0.5 µM
Baseline: control
Target sequence (P49759 1-484): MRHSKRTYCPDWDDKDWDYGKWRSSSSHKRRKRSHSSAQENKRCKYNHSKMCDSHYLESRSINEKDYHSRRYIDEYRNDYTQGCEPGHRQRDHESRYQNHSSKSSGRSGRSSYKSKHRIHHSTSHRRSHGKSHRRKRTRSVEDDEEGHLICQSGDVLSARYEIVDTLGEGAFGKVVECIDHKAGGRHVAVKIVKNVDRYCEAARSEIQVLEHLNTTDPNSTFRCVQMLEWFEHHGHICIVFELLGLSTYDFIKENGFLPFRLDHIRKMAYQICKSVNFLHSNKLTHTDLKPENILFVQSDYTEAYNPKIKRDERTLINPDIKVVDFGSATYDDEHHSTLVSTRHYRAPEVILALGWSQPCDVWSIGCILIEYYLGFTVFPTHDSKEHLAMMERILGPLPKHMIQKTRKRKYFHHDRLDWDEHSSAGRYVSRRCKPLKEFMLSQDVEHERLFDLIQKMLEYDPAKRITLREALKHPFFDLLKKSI
| SMILES | remaining activity |
| --- | --- |
| COc1ccc(C(=O)Nc2sc3c(c2C(N)=O)CCCC3)cc1OC | 96.9% |
| OCC(O)CCON=C1C(c2c(O)[nH]c3ccccc23)=Nc2ccccc21 (stereo not drawn) | 36.6% |
| Nc1[nH]nc2nc3ccccc3nc12 | 99.2% |
| COc1cc2ncnc(Nc3ccc(F)c(Cl)c3)c2cc1OCCCN1CCOCC1 | 105% |
| COc1ccc(OC)c2c(=S)c3ccccc3[nH]c12 | 98.4% |
| CN(C)c1ccc(C=C2C(=O)Nc3ccccc32)cc1 | 103% |
| CCOC(=O)c1c(C)[nH]c(/C=C2\C(=O)Nc3ccccc32)c1C | 98.2% |
| COc1cc2nccc(Oc3ccc(NC(=S)NC(=O)c4ccccc4C)cc3)c2cc1OC | 89.9% |
| Cn1c2ccccc2c2c3c(c4c5ccccc5n(CCC#N)c4c21)CNC3=O | 69.9% |
| Cc1ccc(NC(=O)c2ccc(CN3CCN(C)CC3)cc2)cc1Nc1nc(-c2cccnc2)cs1 | 101% |
| NCCNc1ncc(C(N)=O)c(Nc2cccc(C(F)(F)F)c2)n1 | 112% |
| Cn1sc(=O)n(Cc2ccccc2)c1=O | 112% |
| COc1cc2ncnc(Nc3ccc(Oc4ccccc4)cc3)c2cc1OC | 100% |
| O=C(CCCc1ccc(-c2ccccc2F)cc1)Nc1ccc(O)cc1 | 101% |
| Nc1ccc2ncnc(NCCc3ccc(Oc4ccccc4)cc3)c2c1 | 101% |
| Cc1ccc(Nc2nccc(N(C)c3ccc4c(C)n(C)nc4c3)n2)cc1S(N)(=O)=O | 103% |

Block 3
Structure (SMILES): COc1ccc2c(c1)O[C@H](c1ccc(OC)c(OC)c1)C[C@@H]2NC(=O)C1(c2ccc3c(c2)OC(F)(F)O3)CC1
Observed: cell-free assay
Technique: competition with immobilised ligand
Concentration: 1 µM
| target | remaining binding [%] |
| --- | --- |
| Mitogen-activated protein kinase kinase kinase 7 (MAP3K7, Homo sapiens, UniProt O43318) | 100 |
| Serine/threonine-protein kinase Nek1 (NEK1, Homo sapiens, UniProt Q96PY6) | 100 |
| 5'-AMP-activated protein kinase catalytic subunit alpha-1 (PRKAA1, Homo sapiens, UniProt Q13131) | 100 |
| Serine/threonine-protein kinase tousled-like 2 (TLK2, Homo sapiens, UniProt Q86UE8) | 98 |
| Angiopoietin-1 receptor (TEK, Homo sapiens, UniProt Q02763) | 70 |
| Dual specificity mitogen-activated protein kinase kinase 3 (MAP2K3, Homo sapiens, UniProt P46734) | 100 |
| Phosphatidylinositol 4,5-bisphosphate 3-kinase catalytic subunit alpha isoform (PIK3CA, Homo sapiens, UniProt P42336, E542K) | 95 |
| Serine/threonine-protein kinase 25 (STK25, Homo sapiens, UniProt O00506) | 100 |
| Epidermal growth factor receptor (EGFR, Homo sapiens, UniProt P00533, del752-759) | 100 |
| RAC-alpha serine/threonine-protein kinase (AKT1, Homo sapiens, UniProt P31749) | 63 |
| Ribosomal protein S6 kinase alpha-4, C-terminal kinase domain (RPS6KA4, Homo sapiens, UniProt O75676) | 100 |
| Fibroblast growth factor receptor 2 (FGFR2, Homo sapiens, UniProt P21802) | 92 |
| Insulin-like growth factor 1 receptor (IGF1R, Homo sapiens, UniProt P08069) | 98 |
| Serine/threonine-protein kinase SIK3 (SIK3, Homo sapiens, UniProt Q9Y2K2) | 95 |

Block 4
Cell line: mouse MPNST tumor cells
Technique: high-content nuclear imaging
Measured: cell number
Concentration: 10 µM
Time: 12 h
Notes: mean of 2 replicates
Baseline: plate mean
Direction: higher = more cells
| SMILES | nuclei count |
| --- | --- |
| CC[C@H]1OC(=O)[C@H](C)[C@@H](O[C@H]2C[C@@](C)(OC)[C@@H](O)[C@H](C)O2)[C@H](C)[C@@H](O[C@@H]2O[C@H](C)C[C@H](N(C)C)[C@H]2O)[C@](C)(OC)C[C@@H](C)C(=O)[C@H](C)[C@@H](O)[C@]1(C)O | 2.33 z-score |
| CCCCCCCCCCC(O)C1C=CC2C(=O)N(c3ccccc3)C(=O)C2N1Nc1ccc([N+](=O)[O-])cc1 (stereo not drawn) | 3.12 z-score |
| O=c1cc(N2CCNCC2)oc2c(-c3ccccc3)cccc12 | 2.77 z-score |
| CC(C)c1cnn2c(NCc3ccccc3)cc(NCCCCCCN)nc12 | -0.625 z-score |
| O=C1NC(=O)c2cc(Nc3ccc(F)cc3)c(Nc3ccc(F)cc3)cc21 | 3.19 z-score |
| CC(NCCc1ccc(O)cc1)C(O)c1ccc(O)cc1 (stereo not drawn) | 0.505 z-score |
| O=C(O)CCNC(=O)c1ccc(/N=N/c2ccc(O)c(C(=O)O)c2)cc1 | 0.215 z-score |
| Cc1cnc(-c2ccccc2C(C)C)nc1NCc1ccc(-n2ccnn2)cc1 | 0.1 z-score |
| COc1ccc(CCCn2ncc3c2nc(N)n2nc(-c4ccco4)nc32)cc1 | 0.351 z-score |

A few entries again (block 2):
| SMILES | remaining activity |
| --- | --- |
| CN(C)c1ccc(C=C2C(=O)Nc3ccccc32)cc1 | 103% |
| Cn1c2ccccc2c2c3c(c4c5ccccc5n(CCC#N)c4c21)CNC3=O | 69.9% |
| CCOC(=O)c1c(C)[nH]c(/C=C2\C(=O)Nc3ccccc32)c1C | 98.2% |
| Cc1ccc(NC(=O)c2ccc(CN3CCN(C)CC3)cc2)cc1Nc1nc(-c2cccnc2)cs1 | 101% |
| OCC(O)CCON=C1C(c2c(O)[nH]c3ccccc23)=Nc2ccccc21 (stereo not drawn) | 36.6% |
| COc1ccc(C(=O)Nc2sc3c(c2C(N)=O)CCCC3)cc1OC | 96.9% |
| Cc1ccc(Nc2nccc(N(C)c3ccc4c(C)n(C)nc4c3)n2)cc1S(N)(=O)=O | 103% |
